Measurements from different studies.
Every numbered part comes from another study and shows a few of its results, in no order. Positions count from the first letter of the parent shown.

Study 1
Target: Sal-like protein 4, full length isoform A (SALL4, Homo sapiens, UniProt Q9UJQ4, residues 1-1053)
UniProt Q9UJQ4, sequence (whole entry, looked up): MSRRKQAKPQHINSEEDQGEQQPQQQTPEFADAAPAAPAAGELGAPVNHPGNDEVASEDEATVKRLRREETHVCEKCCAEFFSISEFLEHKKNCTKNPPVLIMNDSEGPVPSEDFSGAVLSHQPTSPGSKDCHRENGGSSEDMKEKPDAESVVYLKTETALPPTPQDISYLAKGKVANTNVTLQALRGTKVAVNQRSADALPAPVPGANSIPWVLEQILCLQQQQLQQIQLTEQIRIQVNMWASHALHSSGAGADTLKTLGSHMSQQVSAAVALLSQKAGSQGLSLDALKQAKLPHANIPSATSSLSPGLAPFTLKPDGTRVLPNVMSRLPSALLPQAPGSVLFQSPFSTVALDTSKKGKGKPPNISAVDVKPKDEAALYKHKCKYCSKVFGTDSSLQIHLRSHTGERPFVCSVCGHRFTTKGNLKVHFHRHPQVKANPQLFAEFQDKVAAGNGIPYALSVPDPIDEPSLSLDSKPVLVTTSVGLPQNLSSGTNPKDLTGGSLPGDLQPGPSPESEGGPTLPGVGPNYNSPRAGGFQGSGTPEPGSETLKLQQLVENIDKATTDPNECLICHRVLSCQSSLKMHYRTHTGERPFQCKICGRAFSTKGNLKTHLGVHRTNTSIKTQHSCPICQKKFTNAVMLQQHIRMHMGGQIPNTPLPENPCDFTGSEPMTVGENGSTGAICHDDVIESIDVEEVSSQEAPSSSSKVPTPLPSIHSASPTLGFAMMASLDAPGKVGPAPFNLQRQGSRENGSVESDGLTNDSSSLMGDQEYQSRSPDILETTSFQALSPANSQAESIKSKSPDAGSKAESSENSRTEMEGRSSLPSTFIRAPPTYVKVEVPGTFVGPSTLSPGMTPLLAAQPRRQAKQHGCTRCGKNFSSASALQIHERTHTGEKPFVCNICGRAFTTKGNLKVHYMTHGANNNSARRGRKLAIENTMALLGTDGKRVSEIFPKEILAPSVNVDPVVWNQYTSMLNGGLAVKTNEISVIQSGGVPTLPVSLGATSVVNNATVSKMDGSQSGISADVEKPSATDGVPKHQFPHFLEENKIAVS
Method: universal PBM
Molecule type: double-stranded DNA, one strand shown
Sample: in vitro
Tested at: 600 nM
Notes: 8-mer, flanks averaged, mean of replicates
Direction: higher = stronger binding
The E-score of `GCCTCTAA` is reported as -0.124.
`CAGCCAGC` gave an E-score of -0.289.
For `ATAGGCCA`, the E-score was 0.0138.
`ACTGCCCG` gave an E-score of -0.2.
For `GGCGAATA`, the E-score was 0.0571.
The E-score of `AGAGGCCA` is reported as -0.184.
With `CATGCGGG` the E-score was -0.309.
For `ACTGTCAG`, the E-score was -0.0183.
For `GTCGTCCA`, the E-score was -0.0887.
With `AGCTTACT` the E-score was -0.0519.

Study 2
Molecule: PhoQ, residues 284 288 289 292 302 303 TNSAEL
Method: Sort-seq
Refers to: YFP reporter
Sample: E. coli
Notes: PhoQ-PhoP variant library
Added: 10 µM Mg2+
Baseline: high Mg2+ state
Direction: higher = stronger signaling
For PhoP, residues 12 14 15 18 19 TQCLL (Escherichia coli, UniProt P23836): fold induction read 1.83.
For PhoP, residues 12 14 15 18 19 ICWRQ (Escherichia coli, UniProt P23836): fold induction read 1.48.
PhoP, residues 12 14 15 18 19 VHTVL (Escherichia coli, UniProt P23836) — fold induction: 15.8.

Study 3
Target: CCNE1, cyclin fold, Cln2 fusion (human)
Method: yeast growth competition, sequencing
Sample: yeast
Notes: weak parent motif
Baseline: not given
Direction: higher = stronger binding
Starting sequence: CDC6 docking peptide (human); TLKGRRLVFDNQL
`TLKGRRLVCDNQL [F9C]`: “normalised enrichment score” -0.368.
For `TLKGRRMVFDNQL [L7M]`, “normalised enrichment score” read -0.0653.
For `TLKGRRLVFKNQL [D10K]`, “normalised enrichment score” read 0.0409.
`TLKWRRLVFDNQL [G4W]` — result for “normalised enrichment score”: 0.0655.
Under “normalised enrichment score”, `TLRGRRLVFDNQL [K3R]` is recorded as 0.638.
For `TLKGRRLAFDNQL [V8A]`, “normalised enrichment score” read -0.241.
`TLKGRRLFFDNQL [V8F]`: “normalised enrichment score” 0.401.

Study 4
Target: Histone acetyltransferase KAT6A, winged helix 1, GST fusion (KAT6A, Homo sapiens, UniProt Q92794, residues 1-85)
Method: protein binding microarray
Molecule type: double-stranded DNA, one strand shown
Sample: in vitro
Tested at: not given
Notes: 8-mer, flanks averaged, mean of 2 arrays, mostly near background
Baseline: not given
Direction: higher = stronger binding
Target sequence (chain): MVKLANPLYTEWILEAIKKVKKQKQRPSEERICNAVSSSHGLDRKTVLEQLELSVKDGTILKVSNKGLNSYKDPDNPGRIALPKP
The E-score of `ACGTACGC` is reported as 0.248.
The E-score of `ACGTGTCG` is reported as -0.0981.
The E-score of `AGGTAAAG` is reported as -0.169.
With `GTCATTCA` the E-score was -0.1.
The E-score of `AGGAGAGA` is reported as -0.0524.
For `AACGCGAC`, the E-score was 0.189.
With `ATCTATTA` the E-score was -0.141.
The E-score of `ATGACAAG` is reported as -0.151.
`ACGAACAA` gave an E-score of 0.00456.
With `ACTAGTAA` the E-score was -0.0676.
`AAATAAGC` has an E-score of -0.112.
